Measured values of several laboratories.
Parts stem from different laboratories: compare values within a part only.

Study 1
Target: Interferon regulatory factor 7, full length, phosphomimetic (IRF7, Homo sapiens, UniProt Q92985, residues 1-503, S101K/S471D/S472D/S475D/S476D/S477D/S483D/S484D/S487D)
Method: protein-binding microarray
Molecule type: double-stranded DNA, one strand shown
Medium: in vitro
Tested at: 250 nM
Notes: 60-bp whole probe
Together with: salmon DNA 0.4 mg/ml
Reference: random background probes
Direction: higher = stronger binding
Shared flanks, not repeated: GCCTAGCAC … GTCTTGATTCGCTTGACGCTGCTG
Construct (chain): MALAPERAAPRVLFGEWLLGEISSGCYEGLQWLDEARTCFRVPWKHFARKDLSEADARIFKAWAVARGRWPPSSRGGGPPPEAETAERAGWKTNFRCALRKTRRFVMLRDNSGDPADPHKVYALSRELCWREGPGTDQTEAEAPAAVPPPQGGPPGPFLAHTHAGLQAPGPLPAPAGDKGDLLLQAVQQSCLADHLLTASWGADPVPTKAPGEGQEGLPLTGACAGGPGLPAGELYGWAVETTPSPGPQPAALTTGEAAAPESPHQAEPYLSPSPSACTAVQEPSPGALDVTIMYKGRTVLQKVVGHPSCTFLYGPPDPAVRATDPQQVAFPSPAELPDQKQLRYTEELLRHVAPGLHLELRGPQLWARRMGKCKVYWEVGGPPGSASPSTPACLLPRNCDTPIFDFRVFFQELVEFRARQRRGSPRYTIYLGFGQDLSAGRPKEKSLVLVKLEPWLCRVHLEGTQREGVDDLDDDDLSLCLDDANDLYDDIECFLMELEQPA
The log fluorescence of `TTAGGACTGGGTCTCGGTTGGTGCTAG` is reported as 1.08 z-score.
The log fluorescence of `GACGGTTTCGGTATCTGGACGTGCTAG` is reported as 10.9 z-score.
The log fluorescence of `AGAATTTCCACTTTGACTTAGTGCTAG` is reported as 1.72 z-score.
With `GACGATTTCAATTTCGAGACGTGCTAG` the log fluorescence was 0.927 z-score.
`TTTGATATCAGTTTCGATTAGTGCTAG` has a log fluorescence of 8.67 z-score.
For `GCCGGTTTCGGTTTCGGGACGTGCTAG`, the log fluorescence was 14.6 z-score.
`GAAGATTTCGGGACTGGAGACGTGCTA` gave a log fluorescence of -0.164 z-score.
The log fluorescence of `GACGAACTTAGTCTCGAGACGTGCTAG` is reported as 1.01 z-score.
`CTAGGTCTCCTTCTCCTTTAGTGCTAG` has a log fluorescence of 0.403 z-score.
With `GACGGTTCCGGATTCGGGACGTGCTAG` the log fluorescence was 3.38 z-score.
`GACGATATCAGGTATCGAGACGTGCTA` gave a log fluorescence of 0.221 z-score.
`TTGGGACTGGGTATCGGTTAGTGCTAG` gave a log fluorescence of 0.265 z-score.
With `TTAGGCTTCGGTTCCGGTTAGTGCTAG` the log fluorescence was 2.2 z-score.
The log fluorescence of `TTAGGTTTCGGGACTGGGTTTGTGCTA` is reported as 3.73 z-score.
The log fluorescence of `TTAGATCTCACACTGGATTAGTGCTAG` is reported as -0.33 z-score.
`TTAGGTTTGGGGTATCGGTTAGTGCTA` has a log fluorescence of 0.319 z-score.
With `TTAGGTCTCCTTTTCCTTTGGTGCTAG` the log fluorescence was 1.82 z-score.
The log fluorescence of `TTAGGTTTCGGGTATCGGATAGTGCTA` is reported as 7.51 z-score.
For `TTAGGACTGGCGTATCGGTTAGTGCTA`, the log fluorescence was -0.479 z-score.

Study 2
Target: Histone acetyltransferase KAT6A, winged helix 2, GST fusion (KAT6A, Homo sapiens, UniProt Q92794, residues 85-181)
Method: protein binding microarray
Molecule type: double-stranded DNA, one strand shown
Medium: in vitro
Tested at: not given
Notes: 8-mer, flanks averaged, mean of 2 arrays, mostly near background
Reference: not given
Direction: higher = stronger binding
Target sequence (chain): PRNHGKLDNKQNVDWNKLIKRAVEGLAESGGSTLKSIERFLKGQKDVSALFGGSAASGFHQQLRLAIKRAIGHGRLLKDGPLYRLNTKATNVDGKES
With `AGGCTCAG` the E-score was -0.037.
`CATAGTAA` has an E-score of 0.0242.
For `GGTATGAC`, the E-score was -0.0919.
`CCCACGGA` has an E-score of 0.184.
`AAGGCGGA` gave an E-score of 0.217.
For `ATGTGACA`, the E-score was 0.017.
The E-score of `AAGAAAAT` is reported as 0.156.
With `AGCTCGAG` the E-score was 0.0224.
With `ATCACTCC` the E-score was -0.0806.
`ATACCAAG` has an E-score of -0.0191.
With `TATAGTAA` the E-score was -0.0208.
With `ACCACGCT` the E-score was -0.105.
For `CTGTCGCA`, the E-score was 0.119.
For `GAATGATC`, the E-score was -0.0259.
With `CGACATTC` the E-score was -0.135.
`AGCAGGCC` has an E-score of 0.155.
For `GAAGCGCA`, the E-score was 0.183.
For `GCTTCGCA`, the E-score was 0.0494.
The E-score of `AATGAAAC` is reported as 0.212.
With `CGGGGGCA` the E-score was 0.025.
`GTGTTCGA` has an E-score of 0.155.
`CTGCACTA` gave an E-score of 0.142.
The E-score of `CCCCGCGG` is reported as 0.32.

Study 3
Target: Fragile X messenger ribonucleoprotein 1, C-terminal low-complexity region (Fmr1, Mus musculus, UniProt P35922)
Method: RNA Bind-n-Seq
Molecule type: RNA
Medium: in vitro
Tested at: 200 nM
Notes: whole 134-nt RNA, ends assumed
Together with: 150 mM LiCl
Reference: input library
Direction: higher = stronger binding
All molecules: 7-deaza-guanosine replaces G
With `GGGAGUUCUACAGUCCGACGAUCUCAAGUCCUGUGCUACACAUCGUAUGUACCGAAUCGGAAAAAGGUUUGGUUUGGAAAGUAUUAUGUUACGCCGUUCGGAUCUGCACUUCCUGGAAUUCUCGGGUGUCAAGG` the log2 enrichment was -1.95.
With `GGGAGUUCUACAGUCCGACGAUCUCAAGUCCUGUGCUACACAUCGUAUGUACCGAAUCGGGGCCCGGGCCCGGCCCGGAAAGUAUUAUGUUACGCCGUUCGGAUCUGCACUUCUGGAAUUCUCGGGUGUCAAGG` the log2 enrichment was -1.28.
With `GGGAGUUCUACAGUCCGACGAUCGUCCUGUGCUACACAUCGUAUGUACCGAAUCGGGUUUUUUUGGGAAAGGGUUUUUGGGAAAGUAUUAUGUUACGCCGUUCGGAUCUGCACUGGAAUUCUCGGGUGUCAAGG` the log2 enrichment was -2.32.
The log2 enrichment of `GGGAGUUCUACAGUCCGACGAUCUUUGGUUAUGAACAGGAUUCGGAUUCACGUCUUGCCAACCAAUCGGGGGAGGAUCACUCCAGUGCCCAGGUCUCAGGAACCUCUGUCUUGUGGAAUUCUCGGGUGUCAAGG` is reported as 0.0833.
The log2 enrichment of `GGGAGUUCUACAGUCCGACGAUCCCUGUGCUACACAUCGUAUGUACCGAAUCGGGCCCCCCGGGGCCCCCCGGGCCCCCCGGGGAAAGUAUUAUGUUACGCCGUUCGGAUCUGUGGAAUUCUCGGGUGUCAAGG` is reported as -2.85.
`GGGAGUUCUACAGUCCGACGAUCAAGUCCUGUGCUACACAUCGUAUGUACCGAAUCGGAAAGGUUUUUGGUUUUUUUGGAAAGUAUUAUGUUACGCCGUUCGGAUCUGCACUUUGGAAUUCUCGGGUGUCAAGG` has a log2 enrichment of -2.52.
`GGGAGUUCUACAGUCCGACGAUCGUCCUGUGCUACACAUCGUAUGUACCGAAUCGGGAAAAGGGGAAAAGGGGAAAAGGGGAAAGUAUUAUGUUACGCCGUUCGGAUCUGCACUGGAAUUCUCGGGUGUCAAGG` gave a log2 enrichment of 0.923.
The log2 enrichment of `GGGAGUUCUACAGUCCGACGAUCUUUGUAGAGCAGCCCGACGGCCAUGGAGGCUGAAGAGACGAUGGAAUGCCUUCAGGAGUUCCCUGAACAUCAUAAAAUGAUCCUCGACCGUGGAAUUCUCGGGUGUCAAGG` is reported as -2.09.

Study 4
Target: RING finger protein unkempt homolog, zinc fingers 1-6, SBP tag (UNK, Homo sapiens, UniProt Q9C0B0, residues 30-357)
Chain of UniProt Q9C0B0 (30-357, looked up): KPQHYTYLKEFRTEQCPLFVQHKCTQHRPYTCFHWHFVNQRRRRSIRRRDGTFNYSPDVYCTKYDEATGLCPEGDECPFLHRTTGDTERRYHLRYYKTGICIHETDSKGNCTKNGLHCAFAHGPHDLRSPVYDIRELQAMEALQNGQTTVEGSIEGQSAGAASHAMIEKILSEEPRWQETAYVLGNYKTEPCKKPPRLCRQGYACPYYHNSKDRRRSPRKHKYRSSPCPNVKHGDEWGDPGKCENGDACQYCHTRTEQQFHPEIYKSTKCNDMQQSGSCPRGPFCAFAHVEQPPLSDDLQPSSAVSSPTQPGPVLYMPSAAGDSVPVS
Method: RNA Bind-n-Seq
Molecule type: RNA
Medium: in vitro
Tested at: 100 nM
Notes: RNA with constant flanks, vertebrate orthologous sites, ends assumed
Reference: input RNA pool
Direction: higher = stronger binding
For `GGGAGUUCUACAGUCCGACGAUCGUUAGGUCAUGACCCUUACAGGUUAGGUCAUGAUGCCUACAGGUUAGGGCAAGACCCCUAUAGAUUAGGCCAUGAUCCCUACAGACUAACUCCUGAUCCCUAUAGGAUGUCACCUAGACCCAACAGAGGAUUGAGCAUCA`, the bound/input enrichment was 0.425 ratio.
`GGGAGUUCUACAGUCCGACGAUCUUGGAAUCAGCUCUCUGAAUAGAAAUAGUAAUAAAAAAACCAAGCAAAAUGAUAUUUGUAUAGAAAAAACAGAAGUUAAAUCAUGUAAAGUAAAUGCUGCCAGUAUUCCAGGCCCUAAAGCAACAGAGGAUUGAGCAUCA` has a bound/input enrichment of 2.8 ratio.
`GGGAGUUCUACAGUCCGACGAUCUACAUCUGGUGAUAUUUGGCCUGGCCUUUCAGCUUAUGAUAAUAGCCCCAGAUCACCCCACAGUCCUUCACCUAUUGCUACACCACCUAGUCAGAGUUCAUCUUGCUCUGAUGCCCCCAUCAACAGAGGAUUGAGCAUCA` gave a bound/input enrichment of 0.72 ratio.
With `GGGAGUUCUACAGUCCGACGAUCAGUAGUUUUAAGCUUGUUUGCACAGUUCUUUUUUUCCAUUGGAAAUGGAAUCCAUUGCCUUAGGUCUUUUUAAAUAGUGUAUUAUUAUCUUUGGGGCUGGCUCUGUGCUUGAAAACCAGUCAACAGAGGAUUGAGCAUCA` the bound/input enrichment was 3.89 ratio.
`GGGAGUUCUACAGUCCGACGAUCUGAGGGAGAGAUUCCUGUGAUUGCUAAUAUUAAAUUUGCUCUUUUUAAGAUAUUUUAAUCUGCAAUUCUUAAUAAAACUGGCAUGCUUACGUUUCUCACCUGAGGAUUGGCCUCAUAUAACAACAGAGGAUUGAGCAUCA` gave a bound/input enrichment of 0.359 ratio.
`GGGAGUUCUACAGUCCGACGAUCCAUCUCUCGUUUUAUAUGUCAAAAAAGGCUUUGAAUUUUUAAAAAAUUGCUAGUUUUGAUUAGCGCUAUCUUCAUGAAGUGUUACAACUCACCACAAACAGAUAUCUGUCUGAAUUACUUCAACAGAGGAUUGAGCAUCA` gave a bound/input enrichment of 0.395 ratio.
For `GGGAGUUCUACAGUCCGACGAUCUUACAGUCAUUGAUGGACUCUAUUUUUUUAUUAUUACUUGGACCUUGGUCGUUUUUAUACUAGCAAAAUGUCUUGUUUUAAUUUGUGUUUUUGGGGGGGUGGGAGUGAACUUGCUGAUUCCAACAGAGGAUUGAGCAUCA`, the bound/input enrichment was 1.49 ratio.
`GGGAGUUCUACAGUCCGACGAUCAUUCCUUCCUUUUUCUAUUUUUUUUCUUUCGUUCUUUCUUUUUUCCUUUUUUCUUUUUUGUAGUUGUUGUUACCCACGCCAUUUUACGUCUCCUUCACUGAAGGGCUAGAGUUUUAACUUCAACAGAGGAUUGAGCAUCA` has a bound/input enrichment of 5.1 ratio.

For quick reference, copied from above (study 4):
`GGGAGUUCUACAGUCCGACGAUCCAUCUCUCGUUUUAUAUGUCAAAAAAGGCUUUGAAUUUUUAAAAAAUUGCUAGUUUUGAUUAGCGCUAUCUUCAUGAAGUGUUACAACUCACCACAAACAGAUAUCUGUCUGAAUUACUUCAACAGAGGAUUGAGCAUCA` gave a bound/input enrichment of 0.395 ratio.
For `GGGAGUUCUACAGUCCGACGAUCUUACAGUCAUUGAUGGACUCUAUUUUUUUAUUAUUACUUGGACCUUGGUCGUUUUUAUACUAGCAAAAUGUCUUGUUUUAAUUUGUGUUUUUGGGGGGGUGGGAGUGAACUUGCUGAUUCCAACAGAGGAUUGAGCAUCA`, the bound/input enrichment was 1.49 ratio.
`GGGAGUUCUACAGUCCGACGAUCAUUCCUUCCUUUUUCUAUUUUUUUUCUUUCGUUCUUUCUUUUUUCCUUUUUUCUUUUUUGUAGUUGUUGUUACCCACGCCAUUUUACGUCUCCUUCACUGAAGGGCUAGAGUUUUAACUUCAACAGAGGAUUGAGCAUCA` has a bound/input enrichment of 5.1 ratio.
